Measurements gathered from unrelated publications.
Compare with care: the assays were run in different laboratories.
Organism: Escherichia coli

For `CCCCCCCC(=O)N[C@@H](CCN)C(=O)N[C@H](C(=O)N[C@@H](CCN)C(=O)N[C@H]1CCNC(=O)[C@H]([C@@H](C)O)NC(=O)[C@H](CCN)NC(=O)[C@H](CCN)NC(=O)[C@H](CCCc2ccccc2)NC(=O)[C@@H](CC(C)C)NC(=O)[C@H](CCN)NC1=O)[C@@H](C)O`, the MIC was 1 to 2 µg/mL (broth microdilution; mcr-1, colistin-resistant).
`CC[C@H](C)[C@H](NC(=O)[C@@H](NC(=O)[C@H](CCCCN)NC(=O)[C@H](CCCCN)NC(=O)[C@@H](NC(=O)[C@H](Cc1c[nH]c2ccccc12)NC(=O)[C@H](CCCCN)NC(=O)[C@H](Cc1c[nH]c2ccccc12)NC(=O)[C@H](CC(C)C)NC(=O)[C@H](CCCCN)NC(=O)[C@H](CCCCN)NC(=O)[C@@H](N)C(C)C)[C@@H](C)CC)C(C)C)C(N)=O` gave an MIC of 16 µM (24 h, 37 °C, Mueller-Hinton broth, KCl 4.5 mM).
For `CC[C@H](C)[C@H](NC(=O)[C@H](CCCNC(=N)N)NC(=O)[C@H](Cc1c[nH]c2ccccc12)NC(=O)[C@H](Cc1c[nH]c2ccccc12)NC(=O)[C@H](CCCNC(=N)N)NC(=O)[C@@H](N)CCCNC(=N)N)C(=O)N[C@@H](Cc1c[nH]c2ccccc12)C(N)=O`, the MIC was 16 µg/mL (25922).
With `CC[C@H](C)[C@H](NC(=O)[C@H](C)NC(=O)[C@@H](NC(=O)[C@H](CC(=O)O)NC(=O)[C@H](CCCCN)NC(=O)[C@H](CO)NC(=O)[C@@H](NC(=O)[C@H](CC(N)=O)NC(=O)[C@H](C)NC(=O)[C@@H](NC(=O)[C@H](CCC(=O)O)NC(=O)[C@H](CCCCN)NC(=O)[C@@H](NC(=O)[C@@H](NC(=O)[C@H](Cc1c[nH]cn1)NC(=O)[C@H](CCCCN)NC(=O)[C@@H](NC(=O)[C@H](CCCCN)NC(=O)[C@H](CCCCN)NC(=O)[C@@H](NC(=O)[C@H](CC(C)C)NC(=O)[C@H](CCCCN)NC(=O)[C@H](CC(N)=O)NC(=O)[C@H](Cc1ccccc1)NC(=O)[C@H](CCCNC(=N)N)NC(=O)[C@H](CCCCN)NC(=O)[C@H](CCCNC(=N)N)NC(=O)[C@H](Cc1ccccc1)NC(=O)CN)C(C)C)C(C)C)[C@@H](C)O)[C@@H](C)CC)[C@@H](C)O)C(C)C)C(C)C)C(=O)N[C@H](C(=O)N[C@@H](C)C(=O)NCC(=O)N[C@@H](CO)C(=O)NCC(=O)N[C@H](C(=O)N[C@@H](C)C(=O)N[C@H](C(=O)NCC(=O)N[C@@H](C)C(=O)N[C@@H](C)C(=O)N[C@@H](CCSC)C(N)=O)C(C)C)C(C)C)C(C)C` the MIC was 0.125 µg/mL (broth microdilution; RKI 131/03, CAMHB with 10% mouse serum).
With `CC(=O)N[C@@H](CC(C)C)C(=O)N[C@H]1CSSC[C@@H](C(=O)N2CCC[C@H]2C(N)=O)NC(=O)[C@H]([C@@H](C)O)NC(=O)[C@H](C(C)C)NC(=O)[C@H]([C@@H](C)O)NC(=O)CNC(=O)[C@H](CC(C)C)NC(=O)[C@H](Cc2ccccc2)NC(=O)[C@H](Cc2ccc(O)cc2)NC(=O)[C@H](CC(C)C)NC(=O)[C@H](CCCCN)NC(=O)[C@H](Cc2ccccc2)NC(=O)[C@H](CCCNC(=N)N)NC(=O)[C@H](CCCCN)NC(=O)[C@H](CC(C)C)NC(=O)[C@H](CCCCN)NC(=O)[C@@H]2CCCN2C(=O)[C@H](CCCCN)NC(=O)[C@H](C(C)C)NC(=O)[C@H](CC(N)=O)NC(=O)[C@H](Cc2ccc(O)cc2)NC(=O)[C@H]([C@@H](C)O)NC1=O` the MIC was 1.25 to 2.5 µM (broth dilution; laboratory strain; 24 h).
For `CC[C@H](C)[C@H](NC(=O)[C@@H](CCCNC(=N)N)NC(=O)[C@H](CCCNC(=N)N)NC(=O)[C@@H]1CCCN1C(=O)[C@@H]1CCCN1C(=O)[C@H](CCCNC(=N)N)NC(=O)[C@@H]1CCCN1C(=O)[C@H](CCCNC(=N)N)NC(=O)[C@@H]1CCCN1C(=O)[C@H](Cc1ccccc1)NC(=O)[C@H](Cc1ccc(O)cc1)NC(=O)[C@@H]1CCCN1C(=O)[C@@H]1CCCN1C(=O)[C@H](CCCCN)NC(=O)[C@H](CC(=O)O)NC(=O)[C@@H](N)C(C)C)C(=O)N[C@@H](Cc1ccc(O)cc1)C(=O)N[C@@H](CC(N)=O)C(=O)N[C@H](CCCNC(=N)N)C(N)=O`, the MIC was 32 µg/mL (broth microdilution; MC4100; 18 h, 37 °C, 25% MHB2).
The MIC of `CC1(C)S[C@@H]2[C@H](NC(=O)[C@H](NC(=O)C3=C(O)C(c4ccccc4F)NC3=O)c3ccccc3)C(=O)N2[C@H]1C(=O)O` (some centres unmarked) is reported as greater than 200 µg/mL (broth microdilution; ATCC 35218, low-level TEM-1; no clavulanic acid).
With `COc1c(NC(=O)c2ccc(NC(=O)c3ccc(NC(=O)[C@H](CC(N)=O)NC(=O)c4ccc(NC(=O)[C@@H](N)Cc5ccccc5)cc4)cc3)c(OC)c2O)ccc(C(=O)O)c1O` the MIC was greater than 64 µg/mL (MerR family clone; 16 h, 37 °C).
`CC(C)[C@H](NC(=O)CNC(=O)CNC(=O)[C@H](Cc1ccc(O)cc1)NC(=O)[C@H](CS)NC(=O)[C@@H](NC(=O)[C@H](Cc1c[nH]c2ccccc12)NC(=O)[C@H](Cc1ccccc1)NC(=O)[C@H](CS)NC(=O)[C@H](Cc1c[nH]c2ccccc12)NC(=O)[C@@H](N)CCCNC(=N)N)C(C)C)C(=O)N[C@@H](CS)C(=O)N[C@@H](Cc1ccc(O)cc1)C(=O)N[C@@H](CCCNC(=N)N)C(=O)N[C@@H](CCCNC(=N)N)C(=O)N[C@@H](CS)C(=O)N[C@@H](CCCNC(=N)N)C(=O)O` has an MIC of 0.34 log10 µg/mL (broth microdilution; K88).
`CC[C@H](C)[C@H](NC(=O)[C@@H](CCCNC(=N)N)NC(=O)[C@H](CCCNC(=N)N)NC(=O)[C@@H]1CCCN1C(=O)[C@@H]1CCCN1C(=O)[C@H](CCCNC(=N)N)NC(=O)[C@@H]1CCCN1C(=O)[C@H](CCCNC(=N)N)NC(=O)[C@@H]1CCCN1C(=O)[C@H](CC(C)C)NC(=O)[C@H](Cc1ccc(O)cc1)NC(=O)[C@H](Cc1ccccc1)NC(=O)[C@@H]1CCCN1C(=O)[C@H](CCCCN)NC(=O)[C@H](CC(=O)O)NC(=O)[C@@H](N)C(C)C)C(=O)N[C@@H](Cc1ccc(O)cc1)C(=O)N[C@@H](CC(N)=O)C(=O)N[C@H](CCCNC(=N)N)C(N)=O` gave an MIC of 16 µg/mL (broth microdilution; ATCC 25922; 18 h, 37 °C, 25% MHB2).
With `CC[C@H](C)[C@H](NC(=O)[C@H](Cc1c[nH]c2ccccc12)NC(=O)[C@H](Cc1ccc(O)cc1)NC(=O)[C@H](CCCCN)NC(=O)[C@H](CC(C)C)NC(=O)[C@H](CO)NC(=O)[C@@H](N)Cc1ccccc1)C(=O)N[C@@H](CCCNC(=N)N)C(=O)N[C@@H](Cc1ccc(O)cc1)C(=O)N[C@@H](CCCCN)C(=O)N[C@@H](CCCNC(=N)N)C(=O)N[C@@H](CCC(N)=O)C(=O)NCC(=O)N[C@@H](C)C(=O)N[C@@H](C)C(=O)N[C@@H](CCCNC(=N)N)C(=O)N[C@@H](Cc1ccccc1)C(N)=O` the MIC was 25 µM (broth dilution; ATCC 25922, Mueller-Hinton broth; 24 h, 37 °C).
With `CC[C@H](C)[C@H](NC(=O)[C@@H](CCCNC(=N)N)NC(=O)[C@H](CCCNC(=N)N)NC(=O)CNC(=O)[C@H](Cc1c[nH]c2ccccc12)NC(=O)[C@H](CCCNC(=N)N)NC(=O)[C@@H]1CCCN1C(=O)[C@H](CCCNC(=N)N)NC(=O)[C@@H]1CCCN1C(=O)[C@H](CC(C)C)NC(=O)[C@H](Cc1ccc(O)cc1)NC(=O)[C@@H]1CCCN1C(=O)[C@@H]1CCCN1C(=O)[C@H](CCCCN)NC(=O)[C@H](CC(=O)O)NC(=O)[C@@H](N)C(C)C)C(=O)N[C@@H](Cc1ccc(O)cc1)C(=O)N[C@@H](CC(N)=O)C(=O)N[C@H](CCCNC(=N)N)C(N)=O` the MIC was 8 µg/mL (broth microdilution; ATCC 25922; 18 h, 37 °C, 25% MHB2).
`CC(C)C[C@H](NC(=O)[C@H](CC(C)C)NC(=O)[C@H](CCCCN)NC(=O)[C@H](Cc1ccccc1)NC(=O)[C@@H](NC(=O)[C@H](CCCNC(=N)N)NC(=O)[C@H](CCCCN)NC(=O)[C@H](Cc1c[nH]c2ccccc12)NC(=O)[C@@H](NC(=O)[C@@H](N)CCCNC(=N)N)C(C)C)C(C)C)C(=O)N[C@@H](CCCCN)C(=O)N[C@@H](CCCNC(=N)N)C(=O)N[C@@H](Cc1ccc(O)cc1)C(=O)N[C@@H](Cc1c[nH]c2ccccc12)C(=O)N[C@@H](CCCNC(=N)N)C(N)=O` gave an MIC of 1.25 µg/mL (broth microdilution; 25922).
With `CSCC[C@H](NC=O)C(=O)N[C@@H](CCCNC(=N)N)C(=O)N[C@H](C(=O)NCC(=O)N[C@@H](CC(N)=O)C(=O)N[C@@H](C)C(=O)N[C@@H](CC(N)=O)C(=O)NCC(=O)N1CCN(c2ccc(N3C[C@H](CNC(C)=O)OC3=O)cc2F)CC1)[C@@H](C)O` the MIC was roughly 17.5 µM (broth dilution; K12 MG1655 wild type).
For `CC(C)C[C@H](NC(=O)[C@@H](NC(=O)[C@H](CCCCN)NC(=O)[C@H](CCCCN)NC(=O)[C@H](CC(C)C)NC(=O)[C@H](Cc1c[nH]c2ccccc12)NC(=O)[C@H](CCCCN)NC(=O)[C@H](Cc1c[nH]c2ccccc12)NC(=O)[C@H](CC(C)C)NC(=O)[C@H](CCCCN)NC(=O)[C@H](CCCCN)NC(=O)[C@@H](N)C(C)C)C(C)C)C(N)=O`, the MIC was 32 µM (24 h, 37 °C, Mueller-Hinton broth, KCl 4.5 mM).
With `O=C(O)CN(CC(=O)O)CP(=O)(O)O` the MIC was 0.125 µg/mL (VIM-2 producer; 32 µg/mL, MIC of meropenem, together with: meropenem).
The MIC of `CC1(C)[C@H](NC(=O)/C(=N\OC2(C(=O)O)CC2)c2nsc(N)n2)C(=O)N1OS(=O)(=O)O` is reported as 4 µg/mL (agar dilution; CDC 1001728, NDM-1).
With `CC[C@H](C)[C@H](NC(=O)[C@@H](CCCNC(=N)N)NC(=O)[C@H](CCCNC(=N)N)NC(=O)[C@H](Cc1ccccc1)NC(=O)[C@H](Cc1c[nH]c2ccccc12)NC(=O)[C@H](CCCNC(=N)N)NC(=O)[C@@H]1CCCN1C(=O)[C@H](CCCNC(=N)N)NC(=O)[C@@H]1CCCN1C(=O)[C@H](CC(C)C)NC(=O)[C@H](Cc1ccc(O)cc1)NC(=O)[C@@H]1CCCN1C(=O)[C@@H]1CCCN1C(=O)[C@H](CCCCN)NC(=O)[C@H](CC(=O)O)NC(=O)[C@@H](N)C(C)C)C(=O)N[C@@H](Cc1ccc(O)cc1)C(=O)N[C@@H](CC(N)=O)C(=O)N[C@H](CCCNC(=N)N)C(N)=O` the MIC was 16 µg/mL (broth microdilution; ATCC 25922; 18 h, 37 °C, 25% MHB2).
`CC1(C)[C@H](NC(=O)/C(=N\OCCN)c2nsc(N)n2)C(=O)N1OS(=O)(=O)O` gave an MIC of 32 µg/mL (agar dilution; 08-85, mcr-1).
`COc1cccc(OC)c1C(=O)N[C@@H]1C(=O)N2[C@@H]1SC(C)(C)[C@@H]2C(=O)O` has an MIC of greater than 128 µM (microbial growth, broth dilution; K88).
